{"data": "Results pooled from the literature", "note": "A part holds a random share of what one study measured. Changes are numbered by the printed parent chain."}
{"data": "Study 1", "target": "Sal-like protein 4, full length isoform B (SALL4, Homo sapiens, UniProt Q9UJQ4-2, residues 1-616)", "technique": "universal PBM", "form": "double-stranded DNA, one strand shown", "medium": "in vitro", "tested at": "not given", "notes": "8-mer, flanks averaged, mean of replicates", "direction": "higher = stronger binding", "Residues (chain)": "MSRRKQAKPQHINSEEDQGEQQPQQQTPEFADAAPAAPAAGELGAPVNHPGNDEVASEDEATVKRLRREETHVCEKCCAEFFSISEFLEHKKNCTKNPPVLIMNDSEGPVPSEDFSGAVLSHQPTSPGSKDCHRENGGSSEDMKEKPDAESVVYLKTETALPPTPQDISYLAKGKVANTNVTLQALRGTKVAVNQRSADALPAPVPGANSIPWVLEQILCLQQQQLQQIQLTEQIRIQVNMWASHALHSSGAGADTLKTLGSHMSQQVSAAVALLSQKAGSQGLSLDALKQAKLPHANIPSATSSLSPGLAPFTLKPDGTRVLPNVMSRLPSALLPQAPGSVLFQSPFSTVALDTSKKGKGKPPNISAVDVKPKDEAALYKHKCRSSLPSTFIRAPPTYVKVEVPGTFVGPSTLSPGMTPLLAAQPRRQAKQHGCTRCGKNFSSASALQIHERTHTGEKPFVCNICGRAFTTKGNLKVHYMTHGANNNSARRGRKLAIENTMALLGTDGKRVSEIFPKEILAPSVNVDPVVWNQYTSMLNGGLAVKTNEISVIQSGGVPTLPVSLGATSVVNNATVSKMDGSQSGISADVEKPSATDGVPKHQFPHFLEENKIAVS"}
{"Oligonucleotide": "ACATGCAA", "E-score": 0.146}
{"Oligonucleotide": "CTCCCTAA", "E-score": 0.00289}
{"Oligonucleotide": "TATTGTCA", "E-score": 0.268}
{"Oligonucleotide": "AACATGTG", "E-score": 0.194}
{"Oligonucleotide": "CAGTCACC", "E-score": -0.179}
{"Oligonucleotide": "ACTCCCCT", "E-score": -0.135}
{"Oligonucleotide": "ACAGCTGG", "E-score": -0.223}
{"Oligonucleotide": "GAACGTCC", "E-score": -0.107}
{"Oligonucleotide": "GTGTCCCA", "E-score": -0.297}
{"Oligonucleotide": "GGGTCCAC", "E-score": -0.294}
{"Oligonucleotide": "CTAGGTCC", "E-score": -0.281}
{"Oligonucleotide": "TATGTCGA", "E-score": 0.244}
{"Oligonucleotide": "CCCCTACA", "E-score": -0.0314}
{"Oligonucleotide": "CAGAGGGA", "E-score": -0.286}
{"Oligonucleotide": "AGTAGTAT", "E-score": 0.181}
{"Oligonucleotide": "CAAACTTG", "E-score": 0.0533}
{"Oligonucleotide": "CCACTAAC", "E-score": 0.0251}
{"Oligonucleotide": "CACCCCAA", "E-score": -0.0631}
{"data": "Study 2", "target": "RNA binding protein fox-1 homolog 2, RRM domain, GST-SBP tag (RBFOX2, Homo sapiens, UniProt O43251-10, residues 100-194)", "technique": "RNA Bind-n-Seq", "form": "RNA", "medium": "in vitro", "tested at": "365 nM", "notes": "natural RNA segment, single round, ends assumed", "baseline": "no-protein control", "direction": "higher = stronger binding", "shared flanks, not repeated": "GGGAGUUCUACAGUCCGACGAUC … UGGAAUUCUCGGGUGCCAA", "Target sequence (chain)": "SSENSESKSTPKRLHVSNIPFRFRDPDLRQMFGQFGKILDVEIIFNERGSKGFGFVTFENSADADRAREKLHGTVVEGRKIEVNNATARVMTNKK"}
{"Oligonucleotide": "UGUGGCCUGCUGGCUGCAUGCUGUAUCAGCCACAACCUGGCAAGUGGCCUUCUGACAGGUUUCUUUUUAUUAGAACCACAGUUUUGACUUUGUUUUGGUAAGCUGUCCUC", "RBNS enrichment (R)": 2.18}
{"Oligonucleotide": "GGUUAUCUCUUGGUAUCUCUCCUGACAUAUUUGUUUUGCUUUAAAUUGGAUUAAAUGGUUUACAGGUUAUCUGAAUCUACAGAUUUAGUAUGUCUAUUAUCUGGACAUGA", "RBNS enrichment (R)": 0.278}
{"Oligonucleotide": "UGGGCCCUCCCACUUGCCUCUGCCACCUCCCCUCAUAGCUAUUCCUGGCUUGCUGUCUGCAAGGCCCAUGUGGGCCUUUUGGCUGAAGCAUUUGUAGAAGCAGCCAUCUU", "RBNS enrichment (R)": 0.673}
{"Oligonucleotide": "AUAAGUUCAAGGUCAUUCUUAUCUAUAUAAUGAGUUUAAGGCAGUCUAAGCUACAUGAGACCCUGUUGAGAGAAAGAGACAGAAAGGCAUGCACGUGCGCGUGUGUGCAC", "RBNS enrichment (R)": 0.219}
{"Oligonucleotide": "CCACCUCCCAUCUGCUGCCCGGAAGGCACUGAGCAGACAGCUUCAGUAUUCAGCGAGCACGCGAACCCACGCUUCUUACCUUUACCUUGAGCUGGGACUGGCUUGGGGCU", "RBNS enrichment (R)": 0.758}
{"Oligonucleotide": "GGAGCUGUGGUGUGGUCUGUCCUGUAUGGUGGCCAGUGCUUUCUGCCAGCAUUUCUGGAUGGAUAUAGGGACUAUCAUUAGUAUCCUAAUACACGGUGAUUUUAAAACAA", "RBNS enrichment (R)": 0.235}
{"Oligonucleotide": "CUCCCAAGCCAGAGUCAAGGUCUGACGCCACCUCAAGGUGACAGCUCAUCUCCAGCACAGCACAGGCGUGUGCACACAGAGGUGUUCCUUGCAGCCCCCUCCCUCUCAGG", "RBNS enrichment (R)": 0.402}
{"Oligonucleotide": "AGCCACCCCUCAUAAGAGCCCUGUUCUCUGAAGACCAUUCAUAUGAGAACAAAGGUCUAGGAUACUGCAUUAGUUACCAGAAAACUAGGGGAAUUUAGAGGGAAAAAAAA", "RBNS enrichment (R)": 0.386}
{"Oligonucleotide": "CGUCUUACUGAAGAAGUCUUUCCAGCUAGAAAGAUGUUCUGACACUGUCUGAUCGUGAAGCACCUGAAUUUACAGAAGAUGCAGAAAGCCUCGUUUUCUCUGCGUGGUUC", "RBNS enrichment (R)": 0.179}
{"Oligonucleotide": "GUGCUGUCUUGGUACUAGUGUAGUGACUUUUUUUCUCCUCUUCUAGUACAUAUUGAUAGGUAUAAUGUAAUUAAGGUUUUAAAAAAAAUAGACAUAGUUAUUCAGAUUAG", "RBNS enrichment (R)": 0.58}
{"Oligonucleotide": "GCUGAAGGAGUUCUGAGUUUGUUUAGUUCUUUAUUCCAUCUCUGUGCGGCCUCCCGAGCCUACGUUCGUUCCCUCCUCCCUUAUGGUGUUGGCCUCCUGCCUGCUGUCAU", "RBNS enrichment (R)": 0.716}
{"Oligonucleotide": "UUUUAUUGUCCAAAGAGAGUCAGAGCUAAGCAUACAGGCUUGGGGGUGAGCCCUGCUGUGAGAGUUCAGGCCCUGGGAGGCUCAGCCACCUCCUCUUGUGGGAAGGAGGU", "RBNS enrichment (R)": 0.501}
{"data": "Study 3", "target": "CCND3, cyclin fold, Cln2 fusion (human)", "technique": "yeast growth competition, sequencing", "medium": "yeast", "notes": "weak parent motif", "baseline": "not given", "direction": "higher = stronger binding", "starting sequence": "MASTL docking peptide (human); PMIAKNLMCELDE; partner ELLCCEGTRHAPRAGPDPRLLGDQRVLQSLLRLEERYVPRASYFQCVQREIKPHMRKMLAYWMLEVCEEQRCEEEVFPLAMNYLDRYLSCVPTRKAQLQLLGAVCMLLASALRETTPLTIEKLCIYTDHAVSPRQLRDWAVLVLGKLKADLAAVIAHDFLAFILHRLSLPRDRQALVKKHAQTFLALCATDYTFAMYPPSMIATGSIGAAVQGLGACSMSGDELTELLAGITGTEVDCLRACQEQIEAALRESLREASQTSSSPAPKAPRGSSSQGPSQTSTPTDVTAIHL"}
{"Substitution": "PMIAKNLMCEGDE [L11G]", "normalised enrichment score": 0.0635}
{"Substitution": "PMIAKNLMCELQE [D12Q]", "normalised enrichment score": -0.0239}
{"Substitution": "PMHAKNLMCELDE [I3H]", "normalised enrichment score": -0.175}
{"Substitution": "PMIAKYLMCELDE [N6Y]", "normalised enrichment score": 0.119}
{"Substitution": "PMIAKNLMCGLDE [E10G]", "normalised enrichment score": -0.112}
{"Substitution": "PMIAKNLMCEDDE [L11D]", "normalised enrichment score": -0.326}
{"Substitution": "PMIAKNLMCELSE [D12S]", "normalised enrichment score": -0.0351}
{"Substitution": "PMIAKNLKCELDE [M8K]", "normalised enrichment score": 0.0111}
{"Substitution": "PMIAKNQMCELDE [L7Q]", "normalised enrichment score": 0.0697}
{"Substitution": "PMIGKNLMCELDE [A4G]", "normalised enrichment score": -0.0453}
{"Substitution": "PMIEKNLMCELDE [A4E]", "normalised enrichment score": -0.228}
{"Substitution": "PMIAKNLMCEQDE [L11Q]", "normalised enrichment score": -0.228}
{"Substitution": "PMIAKNLMSELDE [C9S]", "normalised enrichment score": -0.202}
{"Substitution": "PMIAKNLMIELDE [C9I]", "normalised enrichment score": -0.242}
{"Substitution": "PMIAFNLMCELDE [K5F]", "normalised enrichment score": -0.147}
{"Substitution": "PMIAKNLMCEKDE [L11K]", "normalised enrichment score": -0.0806}
{"Substitution": "PMIAKNLMCEYDE [L11Y]", "normalised enrichment score": -0.102}
{"Substitution": "PMIAKNLMCTLDE [E10T]", "normalised enrichment score": -0.149}
{"Substitution": "PMIAKNLMCEADE [L11A]", "normalised enrichment score": 0.0128}
{"Substitution": "PMYAKNLMCELDE [I3Y]", "normalised enrichment score": 0.477}
{"Substitution": "PMIAKNFMCELDE [L7F]", "normalised enrichment score": -0.039}
{"data": "Study 4", "target": "Prothrombin, mature alpha-thrombin (F2, Homo sapiens, UniProt P00734)", "technique": "aptamer microarray, sandwich", "form": "DNA with 2'F-ANA", "medium": "in vitro", "tested at": "200 nM", "notes": "whole 15-mer aptamer, many near background", "with": "Cy3 exosite-II aptamer, 400 nM", "direction": "higher = stronger binding", "oligonucleotide": "GGTTGGTGTGGTTGG"}
{"Modification": "2'F-ANA at 1 3 7 8 10 11 12 13 14", "mean fluorescence intensity [a.u.]": 179}
{"Modification": "2'F-ANA at 1 2 4 5 7 8 9 10 12 13 14", "mean fluorescence intensity [a.u.]": 47.2}
{"Modification": "2'F-ANA at 3 4 6 9 10 11 14 15", "mean fluorescence intensity [a.u.]": 184}
{"Modification": "2'F-ANA at 1 3 4 6 11 13 14", "mean fluorescence intensity [a.u.]": 60.5}
{"Modification": "2'F-ANA at 4 5 6 8 9 10 13 14 15", "mean fluorescence intensity [a.u.]": 110}
{"Modification": "2'F-ANA at 1 2 3 6 8 10 12 13 15", "mean fluorescence intensity [a.u.]": 86.1}
{"Modification": "2'F-ANA at 1 2 3 5 6 9 12 13 14 15", "mean fluorescence intensity [a.u.]": 101}
{"Modification": "2'F-ANA at 1 3 5 6 7 10 11 13 14", "mean fluorescence intensity [a.u.]": 46.7}
{"Modification": "2'F-ANA at 2 3 4 6 9 10 14 15", "mean fluorescence intensity [a.u.]": 160}
{"Modification": "2'F-ANA at 3 7 8 10 13 15", "mean fluorescence intensity [a.u.]": 570}
{"Modification": "2'F-ANA at 1 5 7 8 12 13 14", "mean fluorescence intensity [a.u.]": 48.1}
{"Modification": "2'F-ANA at 2 4 6 7 8 9 10 14 15", "mean fluorescence intensity [a.u.]": 77.2}
{"Modification": "2'F-ANA at 3 4 5 6 8 10 11 13 14 15", "mean fluorescence intensity [a.u.]": 52.3}
{"Modification": "2'F-ANA at 1 2 3 4 5 6 7 10 11 13 14", "mean fluorescence intensity [a.u.]": 48.5}
{"Modification": "2'F-ANA at 3 4 5 6 7 8 9 11 12", "mean fluorescence intensity [a.u.]": 183}
{"Modification": "2'F-ANA at 1 2 3 4 6 8 12 13 14 15", "mean fluorescence intensity [a.u.]": 74.6}
{"Modification": "2'F-ANA at 2 3 5 6 7 8 10 13 14", "mean fluorescence intensity [a.u.]": 49.7}
{"Modification": "2'F-ANA at 1 2 6 8 11 12", "mean fluorescence intensity [a.u.]": 300}
{"Modification": "2'F-ANA at 1 2 4 5 7 9 12 15", "mean fluorescence intensity [a.u.]": 94.7}
